Measurements from different studies.
Several values in a cell are separate wells, animals, samples, runs or records. Numbers after ± are the reported error.

SMILES | test | test system | conditions | scale | quantity | value
C[Si](C)(C)O[Si](C)(C)C |  |  | 7 to 48 µg/L, 20.0 °C |  | log KOA | 2.74
CCOC(=O)N1C[C@@H](c2cccc(Br)c2)N[C@H](c2ccccc2O)C1 | shake-flask, LC-HRMS | aqueous buffer | 16 h, pH 6.8 |  | solubility | < 4 µM
CCc1c(-c2ccccc2)c(-c2ccccc2)nn1-c1ccccc1-c1cccc(OCC(=O)O)c1 |  | Sprague-Dawley rat | oral |  | Cmax/dose | 126 kg·ng/mL/mg and 209 kg·ng/mL/mg and 131 kg·ng/mL/mg
Cc1ccc([C@@H]2O[C@H](CO)[C@@H](O)[C@H](O)[C@H]2O)cc1Cc1ccc(-c2ccc(F)cc2)s1 |  | Japanese type 2 diabetes patients | 100 mg, day 6, 24 h urine collection | baseline: baseline | urinary sodium excretion change | -19.2 mEq
CNC(=O)c1cc(Oc2ccc(NC(=O)Nc3cc(C(C)(C)C)nn3-c3ccc4ncccc4c3)c(F)c2)ccn1 | item: worst grade 2 | human | oral, dose not given, cycles 1 and 2, Low Cmax subgroup |  | patients with nervous system disorder AE | 6%
C[C@@]1(C2CCCCC2)COC[C@@H](c2ccc(F)cc2Cl)N1 | shake-flask, LC-HRMS | aqueous buffer | 16 h, pH 6.8 |  | solubility | < 4 µM
NC[C@H](NC(=O)c1ccc(-c2ccc(Br)cc2)cc1)C(=O)NO |  | aqueous buffer | pH 7.4 |  | solubility | < 2.7 µg/mL
COc1cc(C(=O)NC2CCN(C)CC2)c(F)cc1Nc1ncc(C(F)(F)F)c(Oc2cccc3c2C(=O)N(C)C3)n1 |  | human patients, plasma | oral, 25 mg single dose, geometric mean |  | dose-normalised AUC(0-inf) | 157 nmol·h/L per mg
O=c1cc(-c2ccc(OS(=O)(=O)[O-])cc2)oc2cc(OS(=O)(=O)[O-])cc(OCc3cccc(COc4cc(OS(=O)(=O)[O-])cc5oc(-c6ccc(OS(=O)(=O)[O-])cc6)cc(=O)c45)n3)c12.[Na+].[Na+].[Na+].[Na+] |  | pooled human plasma |  |  | concentration doubling PT | > 855 µM
CC(C)(C(=O)N1CCOc2c(C#N)cncc2C1)C(F)F |  | human, both sexes | oral, 30 mg single dose |  | subjects with presyncope TEAE | 0%
O=c1[nH]c(=O)n([C@@H]2O[C@H](CO)[C@@H](O)[C@@H]2F)cc1CCCC[18F] |  | nude mice, RG2 tumour, heart | intravenous, dose not given, 2 h |  | biodistribution | 0.11 ± 0.02 %ID/g
N#Cc1ccc2c(c1)[C@H]1CCCN(C(=O)c3ccc4[nH]cnc4c3)[C@H]1C2 |  | human females | 160 mg, day 7 |  | total testosterone level | 0.8 nmol/L
CCOC(=O)N1C[C@@H](c2ccc(C(F)(F)F)cc2)N[C@@H](c2cnc(-c3ccccc3)nc2)C1 | shake-flask, LC-HRMS | aqueous buffer | 16 h, pH 6.8 |  | solubility | < 4 µM
Cc1c(-c2ccc(N3CCc4cccc(C(=O)Nc5nc6ccccc6s5)c4C3)nc2C(=O)O)cnn1CC12CC3(C)CC(C)(C1)CC(OCCNCC[C@H](O)CO)(C3)C2 |  | beagle dog, male, anaesthetised | intravenous infusion, 0.3 mg/kg/min, 75 min | baseline: vehicle | QRS duration change | 0 ms
CCCCc1ccc(-c2ccc(C#N)cc2)cc1 |  | Sprague-Dawley rat, female, placenta | 10 ng/mL in perfusate, 50 (unit not given), low dose, mixture of 21 LCMs |  | placental accumulation | 1.29 ± 2.14 ng/g
Cc1cc(/C=C/C#N)cc(C)c1Nc1ccnc(Nc2ccc(C#N)cc2)n1 |  | buffer | 24 h, pH 4.5, 37 °C, below quantification limit 50 ng/mL |  | equilibrium solubility | not detected
CNC(=O)c1ccc(-c2cnc3ncc(Cc4ccc5ncccc5c4)n3n2)cc1F | item: Dizziness, all grades | cancer patients | oral, dose not given, dose escalation, any causality |  | patients with adverse event | 16%
O=C(COc1ccc(Cl)cc1)NC12CC(c3nnc([C@H]4C[C@@H](OC(F)(F)F)C4)o3)(C1)C2 | item: Presyncope | healthy humans, both sexes | oral, 200 mg, single ascending dose | baseline: subjects | treatment-emergent adverse events | 16.7%
Cn1cc(Nc2nccc(-c3ccc4c(c3)CN(C3COC3)CC[C@H]4NC(=O)c3cn(C(C)(C)C)nn3)n2)cn1 |  | human, whole blood | 300 mg twice daily, day 14 | baseline: pre-dose baseline | monocyte count change | -0.84%
C[C@@H](O)[C@H](NC(=O)c1ccc(-c2ccccc2)cc1)C(=O)NO |  | aqueous buffer | pH 7.4 |  | solubility | 95 µg/mL
N#Cc1ccc2c(c1)[C@H]1CCCN(C(=O)c3ccc4[nH]cnc4c3)[C@H]1C2 |  | human, plasma | oral, 80 mg once daily, steady state |  | Cmax steady state | 6.71 µM
CCOC(=O)N1C[C@@H](c2ccc(C(F)(F)F)cc2)N[C@@H](C(CC)CC)C1 | shake-flask, LC-HRMS | aqueous buffer | 16 h, pH 6.8 |  | solubility | < 4 µM
Cc1cc(NC2CCN(C(=O)OC3CCN(C(=O)/C=C/CN(C)C)C3)CC2)n2ncc(C(C)C)c2n1 (centres unmarked) | Phase I dose escalation CTCAE v4.0, item: decreased appetite | patients with advanced solid tumours | dose not given, TIW dosing any grade |  | patients with adverse event | 18%
CC(C)n1c(Nc2cccnc2)nc2cnc(Nc3ccc(N4CCN(C)CC4)cc3)nc21 | item: sinus bradycardia | healthy male subjects | oral, 100 mg, study, together with: itraconazole |  | subjects with adverse event | 0%

SMILES | test | test system | conditions | scale | quantity | value
CCCCC[C@H]1CC[C@H](c2ccc(OCC)c(F)c2F)CC1 |  | rat, placenta | 1000 ng/mL in perfusate, middle dose, mixture of 21 LCMs |  | placental accumulation | 21.9 ± 19.1 ng/g
C=CC(=O)N1CCC(c2ccc(C(N)=O)c(-c3ccc(Oc4ccccc4)cc3)n2)CC1 | CTCAE 4.03 | patients with relapsed/refractory MCL | oral, 100 mg twice daily |  | incidence of grade ≥3 TEAEs | 12.5%
COc1ccc([C@@H](O)c2cc(-c3ncnc4cc(N5CCOCC5)ccc34)c(F)cc2Cl)nn1 |  | locally advanced rectal cancer | oral, 100 mg, together with: capecitabine and radiotherapy |  | rectal tenesmus TEAE | 0%
Cn1cc([C@H]2C[C@H]3CSC(N)=N[C@@]3(c3ccc(F)cc3F)CO2)cn1 |  | male 129/SVE mouse, brain | subcutaneous, 50 mg/kg, 6 h |  | brain concentration | 3.09 µM
CCOC(=O)N1C[C@@H](C2CCCCC2)N[C@@H](c2cc(Cl)cc(Cl)c2)C1 | shake-flask, LC-HRMS | aqueous buffer | 16 h, pH 6.8 |  | solubility | < 4 µM
CC1(C)C(/C=C/C=C/C=C/C=C2\N(CCCCS(=O)(=O)O)c3ccc4ccccc4c3C2(C)C)=[N+](CCCCS(=O)(=O)[O-])c2ccc3ccccc3c21 |  | toluene | 20 °C |  | Stokes shift | 29 nm
Cc1cccc(CNC(=O)c2cn(CCNC(=O)c3ccccc3Sc3c([N+](=O)[O-])ncn3C)c3cc4c(cc3c2=O)OC(F)(F)O4)n1 |  | Sprague-Dawley rat, male, whole blood | intramuscular, 3 mg/kg of parent drug |  | MRT(0-inf) | 3.27 h
Nc1nc2c(ncn2COCCO)c(=O)[nH]1 |  | methanol + ethanol | 24 h, 298.2 K, mass fraction 0.9 |  | solubility | 312 µg/mL
Cc1cc([C@H]2C[C@H]3[C@@H](C)SC(N)=N[C@@]3(c3ccc(F)cc3F)CO2)on1 |  | male 129/SVE mouse, CSF | subcutaneous, 50 mg/kg, 3 h |  | CSF concentration | 546 nM
N[C@@H](C[18F])C(=O)O | PET imaging | female athymic nude mice, U-87 MG xenograft, muscle | intravenous, 20 min |  | tracer uptake | 1.24 ± 0.1 %ID/cc
COc1cc(OC)c(NC(=O)CSc2nnc(-c3ccncc3)n2-c2ccccc2)cc1Cl |  | aqueous buffer | pH 7.4 |  | solubility | < 2.58 µg/mL
CCOC(=O)N1C[C@@H]([C@H](C)CC)N[C@@H](C2CC2)C1 | shake-flask, LC-HRMS | aqueous buffer | 16 h, pH 6.8 |  | solubility | > 750 µM
CCc1cc(C(=O)NC)c2nccc(N3CCc4c(cc(Cn5ccnc5)cc4-c4cn(C)nc4C(F)(F)F)C3=O)c2c1 |  | Sprague Dawley rats | oral, 50 mg/kg once daily, 7 days |  | red cell distribution width | 13.2 ± 0.92%
NC1(C(=O)N[C@@H](CCO)c2ccc(Cl)cc2)CCN(c2nc[nH]c3nccc2-3)CC1 |  | metastatic CRPC patients | dose not given, any grade, treatment-related, all doses, together with: enzalutamide 160 mg daily |  | incidence of Vomiting | 26.7%
O=c1[nH]c(=O)n([C@H]2C[C@H](O)[C@@H](CO)O2)cc1CCCCC[18F] |  | male CD-1 nu/nu mice, RG2 tumour, brain | intravenous, dose not given, 2 h |  | biodistribution | 0.04 ± 0.01 %ID/g
Oc1nc2nonc2cc1Nc1c(F)c(F)c(F)c(F)c1F |  | obese C57BL/6J mice, Western diet 19 weeks | oral gavage, 130 mg/kg/day, end of treatment |  | muscle weight | no effect
Cc1nc(-c2ccc(OCC(C)C)c(C#N)c2)sc1C(=O)O |  | human, plasma | oral, 20 mg, together with: verinurad 2.5 mg | baseline: test over reference | geometric mean ratio AUC(0-24) | 99.2
Cc1c(C(=O)O)ccc2c3n(nc12)[C@@H]1[C@H](C3)N(CC2CC2)[C@@]2(C(=O)Nc3cc(Cl)ccc32)[C@H]1c1cccc(Cl)c1F |  | human patients phase Ia | oral, dose not given, grade ≥3, all patients |  | decreased WBC count incidence | 13%
CCN1/C(=C/C(C)=O)Sc2ccc(F)cc21 |  | cynomolgus monkey | oral, 10 mg/kg, 0.5 h post-dose |  | QT interval | 227 ± 10 ms
C[C@@H](Nc1cc(F)cc(F)c1)c1cc(C(=O)N(C)C)cc2c(=O)cc(N3CCOCC3)oc12 | item: Anemia | advanced solid tumour patients | oral, dose not given, dose expansion |  | related serious adverse events | 0%
Cc1cc(C)c(CNC(=O)c2cc(Cl)c3c(c2C)O[C@@](C)([C@H]2CC[C@H](N(C)C)CC2)O3)c(=O)[nH]1 |  | human relapsed/refractory NHL | oral, 200 mg once daily, onset day 1 to 14 |  | confusional state grade ≥3 | 4.2%
COc1ccc2c(c1)CN(C(=O)CCN1CCC(Cc3ccccc3)CC1)CC[S@@+]2[O-] | telemetry | conscious male beagle dogs | intravenous, 2 mg/kg, 0.5 h |  | QT interval | 200 ± 7 ms
Cn1cc(Nc2nc(N)nc(-c3cccc(-n4ccc5cc(C6CC6)cc(F)c5c4=O)c3CO)n2)cn1 |  | healthy humans, fed | oral tablet, 150 mg twice daily (multiple dose), 14 (unit not given) | baseline: subjects | vomiting incidence | 0%

Some of these lines once more:
SMILES | test | test system | conditions | scale | quantity | value
Cn1cc([C@H]2C[C@H]3CSC(N)=N[C@@]3(c3ccc(F)cc3F)CO2)cn1 |  | male 129/SVE mouse, brain | subcutaneous, 50 mg/kg, 6 h |  | brain concentration | 3.09 µM
C[C@@]1(C2CCCCC2)COC[C@@H](c2ccc(F)cc2Cl)N1 | shake-flask, LC-HRMS | aqueous buffer | 16 h, pH 6.8 |  | solubility | < 4 µM
O=c1cc(-c2ccc(OS(=O)(=O)[O-])cc2)oc2cc(OS(=O)(=O)[O-])cc(OCc3cccc(COc4cc(OS(=O)(=O)[O-])cc5oc(-c6ccc(OS(=O)(=O)[O-])cc6)cc(=O)c45)n3)c12.[Na+].[Na+].[Na+].[Na+] |  | pooled human plasma |  |  | concentration doubling PT | > 855 µM
COc1cc(C(=O)NC2CCN(C)CC2)c(F)cc1Nc1ncc(C(F)(F)F)c(Oc2cccc3c2C(=O)N(C)C3)n1 |  | human patients, plasma | oral, 25 mg single dose, geometric mean |  | dose-normalised AUC(0-inf) | 157 nmol·h/L per mg
CC(C)n1c(Nc2cccnc2)nc2cnc(Nc3ccc(N4CCN(C)CC4)cc3)nc21 | item: sinus bradycardia | healthy male subjects | oral, 100 mg, study, together with: itraconazole |  | subjects with adverse event | 0%
N#Cc1ccc2c(c1)[C@H]1CCCN(C(=O)c3ccc4[nH]cnc4c3)[C@H]1C2 |  | human females | 160 mg, day 7 |  | total testosterone level | 0.8 nmol/L
C[C@@H](O)[C@H](NC(=O)c1ccc(-c2ccccc2)cc1)C(=O)NO |  | aqueous buffer | pH 7.4 |  | solubility | 95 µg/mL
NC1(C(=O)N[C@@H](CCO)c2ccc(Cl)cc2)CCN(c2nc[nH]c3nccc2-3)CC1 |  | metastatic CRPC patients | dose not given, any grade, treatment-related, all doses, together with: enzalutamide 160 mg daily |  | incidence of Vomiting | 26.7%
